# Assay results collected from several papers.
# Compare with care: the assays were run in different laboratories.
# Organism: Pseudomonas aeruginosa
Compound,test,system,setting,MIC
CN[C@H](CC(C)C)C(=O)N[C@H]1C(=O)N[C@@H](CC(N)=O)C(=O)N[C@H]2C(=O)N[C@H]3C(=O)N[C@H](C(=O)N[C@H](C(=O)NCc4cn(CC(=O)N[C@H](C(=O)N[C@@H](CCN)C(=O)N[C@H]5CCNC(=O)[C@H]([C@@H](C)O)NC(=O)[C@H](CCN)NC(=O)[C@H](CCN)NC(=O)[C@H](CC(C)C)NC(=O)[C@@H](CC(C)C)NC(=O)[C@H](CCN)NC5=O)[C@@H](C)O)nn4)c4cc(O)cc(O)c4-c4cc3ccc4O)[C@H](O)c3ccc(c(Cl)c3)Oc3cc2cc(c3O[C@@H]2O[C@H](CO)[C@@H](O)[C@H](O)[C@H]2O[C@H]2C[C@](C)(N)[C@H](O)[C@H](C)O2)Oc2ccc(cc2Cl)[C@H]1O,broth microdilution,"ATCC 35218, cation-adjusted Mueller-Hinton broth",,6 µM
N=C(N)NCCC[C@@H]1NC(=O)[C@@H](CCCNC(=N)N)NC(=O)[C@H](CCCNC(=N)N)NC(=O)[C@@H](C(c2ccccc2)c2ccccc2)NC(=O)[C@@H](C(c2ccccc2)c2ccccc2)NC(=O)[C@@H](C(c2ccccc2)c2ccccc2)NC(=O)[C@@H](CCCNC(=N)N)NC1=O,,"1188712, multidrug-resistant",,32 µg/mL
CC(C)C[C@@H]1NC(=O)[C@H](CCCCN)NC(=O)C(N)CCC=CCCC(C(N)=O)NC(=O)[C@H](CCCCN)NC(=O)[C@H](CC(C)C)NC(=O)[C@H](CCCCN)NC(=O)C2CCC=CCCC(NC(=O)[C@H](CCCCN)NC1=O)C(=O)N[C@@H](CCCCN)C(=O)N1CCC[C@@H]1C(=O)NCC(=O)N[C@@H](CCCCN)C(=O)N2 (stereo partly shown),broth microdilution,"ATCC 9027, Mueller-Hinton broth","18 h, 37 °C",32 µM
CN[C@H](CC(C)C)C(=O)N[C@H]1C(=O)N[C@@H](CC(N)=O)C(=O)N[C@H]2C(=O)N[C@H]3C(=O)N[C@H](C(=O)N[C@H](C(=O)O)c4cc(O)cc(O)c4-c4cc3ccc4O)[C@H](O)c3ccc(c(Cl)c3)Oc3cc2cc(c3O[C@@H]2O[C@H](CO)[C@@H](O)[C@H](O)[C@H]2O[C@H]2C[C@](C)(NCc3ccc(OCc4cn(CC(=O)N[C@H](C(=O)N[C@@H](CCN)C(=O)N[C@H]5CCNC(=O)[C@H]([C@@H](C)O)NC(=O)[C@H](CCN)NC(=O)[C@H](CCN)NC(=O)[C@H](CC(C)C)NC(=O)[C@@H](CC(C)C)NC(=O)[C@H](CCN)NC5=O)[C@@H](C)O)nn4)c(OC)c3)[C@H](O)[C@H](C)O2)Oc2ccc(cc2Cl)[C@H]1O,broth microdilution,"ATCC 27736, cation-adjusted Mueller-Hinton broth",,3 µM
CC[C@H](C)[C@H](NC(=O)CN)C(=O)NCC(=O)N[C@@H](C)C(=O)N[C@H](C(=O)N[C@@H](CC(C)C)C(=O)N[C@@H](CCCCN)C(=O)N[C@H](C(=O)N[C@@H](CC(C)C)C(=O)N[C@H](C(=O)N[C@H](C(=O)NCC(=O)N[C@@H](CC(C)C)C(=O)N1CCC[C@H]1C(=O)N[C@@H](C)C(=O)N[C@@H](CC(C)C)C(=O)N[C@H](C(=O)N[C@@H](CO)C(=O)N[C@@H](Cc1c[nH]c2ccccc12)C(=O)N[C@H](C(=O)N[C@@H](CCCCN)C(=O)N[C@@H](CCCNC(=N)N)C(=O)N[C@@H](CCCCN)C(=O)N[C@@H](CCCNC(=N)N)C(=O)N[C@@H](CCC(N)=O)C(=O)N[C@@H](CCC(N)=O)C(N)=O)[C@@H](C)CC)[C@@H](C)CC)[C@@H](C)O)[C@@H](C)O)C(C)C)C(C)C,broth microdilution,4891 resistant,"18 h, 37 °C",4 µM
CC[C@H](C)[C@H](NC(=O)[C@H](CCCCN)NC(=O)[C@H](Cc1c[nH]c2ccccc12)NC(=O)[C@H](Cc1c[nH]c2ccccc12)NC(=O)[C@H](CCCCN)NC(=O)[C@H](CCCCN)NC(=O)[C@H](CCCCN)NC(=O)[C@H](Cc1c[nH]c2ccccc12)NC(=O)[C@H](CCCCN)NC(=O)[C@H](CCCCN)NC(=O)[C@H](Cc1c[nH]c2ccccc12)NC(=O)[C@H](CCCCN)NC(=O)[C@H](CCCCN)NC(=O)[C@@H](NC(=O)[C@@H](NC(=O)[C@H](CCCCN)NC(=O)[C@@H](N)CCCNC(=N)N)[C@@H](C)CC)[C@@H](C)CC)C(=O)N[C@@H](Cc1c[nH]c2ccccc12)C(=O)N[C@@H](Cc1c[nH]c2ccccc12)C(=O)N[C@@H](CCCCN)C(N)=O,broth microdilution,10145,,1.25 µg/mL
CC[C@H](C)[C@H](NC(=O)[C@H](Cc1c[nH]c2ccccc12)NC(=O)[C@H](CCCNC(=N)N)NC(=O)[C@@H]1CCCN1C(=O)[C@H](CCCNC(=N)N)NC(=O)[C@@H]1CCCN1C(=O)[C@H](CC(C)C)NC(=O)[C@H](Cc1ccc(O)cc1)NC(=O)[C@@H]1CCCN1C(=O)[C@@H]1CCCN1C(=O)[C@H](CCCCN)NC(=O)[C@H](CC(=O)O)NC(=O)[C@@H](N)C(C)C)C(=O)N[C@@H](CCCNC(=N)N)C(=O)N[C@H](CCCNC(=N)N)C(=O)N[C@H](C(=O)N[C@@H](Cc1ccc(O)cc1)C(=O)N[C@@H](CC(N)=O)C(=O)N[C@H](CCCNC(=N)N)C(N)=O)[C@@H](C)CC,broth microdilution,DSM 1117,"18 h, 37 °C, 25% MHB2",128 µg/mL
C#CCNC(=O)[C@H]1NC(=O)[C@H]2NC(=O)[C@H](NC(=O)[C@@H]3NC(=O)[C@H](CC(N)=O)NC(=O)[C@H](NC(=O)[C@@H](CC(C)C)NC)[C@H](O)c4ccc(c(Cl)c4)Oc4cc3cc(c4O[C@@H]3O[C@H](CO)[C@@H](O)[C@H](O)[C@H]3O[C@H]3C[C@](C)(N)[C@H](O)[C@H](C)O3)Oc3ccc(cc3Cl)[C@H]2O)c2ccc(O)c(c2)-c2c(O)cc(O)cc21,broth microdilution,"ATCC 27736, cation-adjusted Mueller-Hinton broth",,> 86 µM
CCCCCCCC(=O)N[C@@H](CCN)C(=O)N[C@H](C(=O)N[C@@H](CCN)C(=O)N[C@H]1CCNC(=O)[C@H]([C@@H](C)O)NC(=O)[C@H](CCN)NC(=O)[C@H](CCN)NC(=O)[C@H](CCC(C)C)NC(=O)[C@@H](Cc2ccccc2)NC(=O)[C@H](CCN)NC1=O)[C@@H](C)O,,ATCC 27853,,0.25 to 0.5 µg/mL
CC[C@H](C)[C@H](NC(=O)[C@@H](CCCNC(=N)N)NC(=O)[C@H](CCCNC(=N)N)NC(=O)[C@H](Cc1c[nH]cn1)NC(=O)[C@H](Cc1c[nH]c2ccccc12)NC(=O)[C@H](CCCNC(=N)N)NC(=O)[C@@H]1CCCN1C(=O)[C@H](CCCNC(=N)N)NC(=O)[C@@H]1CCCN1C(=O)[C@H](CC(C)C)NC(=O)[C@H](Cc1ccc(O)cc1)NC(=O)[C@@H]1CCCN1C(=O)[C@@H]1CCCN1C(=O)[C@H](CCCCN)NC(=O)[C@H](CC(=O)O)NC(=O)[C@@H](N)C(C)C)C(=O)N[C@@H](Cc1ccc(O)cc1)C(=O)N[C@@H](CC(N)=O)C(=O)N[C@H](CCCNC(=N)N)C(N)=O,broth microdilution,DSM 1117,"18 h, 37 °C, 25% MHB2",128 µg/mL

# For quick reference, copied from above:
Compound,test,system,setting,MIC
CC[C@H](C)[C@H](NC(=O)[C@H](Cc1c[nH]c2ccccc12)NC(=O)[C@H](CCCNC(=N)N)NC(=O)[C@@H]1CCCN1C(=O)[C@H](CCCNC(=N)N)NC(=O)[C@@H]1CCCN1C(=O)[C@H](CC(C)C)NC(=O)[C@H](Cc1ccc(O)cc1)NC(=O)[C@@H]1CCCN1C(=O)[C@@H]1CCCN1C(=O)[C@H](CCCCN)NC(=O)[C@H](CC(=O)O)NC(=O)[C@@H](N)C(C)C)C(=O)N[C@@H](CCCNC(=N)N)C(=O)N[C@H](CCCNC(=N)N)C(=O)N[C@H](C(=O)N[C@@H](Cc1ccc(O)cc1)C(=O)N[C@@H](CC(N)=O)C(=O)N[C@H](CCCNC(=N)N)C(N)=O)[C@@H](C)CC,broth microdilution,DSM 1117,"18 h, 37 °C, 25% MHB2",128 µg/mL
